Results pooled from the literature.
Each line is one published result; not all experiments were run side by side. Numbers after ± are the reported error.
Cell line: NIH3T3

SMILES | assay | setting | IC50
O=C1Nc2ccc(-c3ccc(C(=O)N4CCOCC4)cc3)cc2/C1=C/c1ccc(N2CCNCC2)cc1 | cell growth or viability, WST-1 | 48 h | 2.65 µM
Cc1c(C)c(C)[c-](C)c1C.O=C1c2cccc[n+]2[Ir]([Cl])[N]1c1ccccc1 | cell growth or viability, SRB | 24 h | 71 µM
O=C1/C(=C/c2ccc(B(O)O)cc2)CC/C1=C\c1ccc(B(O)O)cc1 | cytotoxicity, MTT | 24 h | > 250 µM
CN1CCN(C(=O)c2ccc(-c3ccc4c(c3)/C(=C/c3ccc(N5CCOCC5)cc3)C(=O)N4)cc2)CC1 | cell growth or viability, WST-1 | 48 h | 2.75 µM
Cc1ccc(=O)n(-c2ccc(NC(=O)[C@H](C)N(C)C)cc2)c1 | cell growth or viability, CCK-8 | – | 246 µM
O=C1Nc2ccc(-c3ccc(C(=O)N4CCCC4)cc3)cc2/C1=C/c1ccc(N2CCNCC2)cc1 | cell growth or viability, WST-1 | 48 h | 0.18 µM
CCC(CC)c1nc(-c2ccc(O)cc2O)cs1 | cell growth or viability, resazurin | 72 h | 3.8 µM
C[C@@H](C(=O)Nc1ccc(Cn2cc(C(F)(F)F)ccc2=O)cc1)N(C)C | cell growth or viability, CCK-8 | – | 310 µM
CC(C)c1cccc(C(C)C)c1N=C1[O][Ir]([Cl])[n+]2ccccc21.Cc1c(C)c(C)[c-](C)c1C | cell growth or viability, SRB | 24 h | > 200 µM
O=C(O)Cc1ccccc1Nc1c(Cl)cccc1Cl.O=C(O)Cc1ccccc1Nc1c(Cl)cccc1Cl.c1cnc2c(c1)ccc1cccnc12.c1cnc2c(c1)ccc1cccnc12 | cell viability, MTT | 48 h | 54.8 ± 2.36 µM

Repeated from above:
SMILES | assay | setting | IC50
CC(C)c1cccc(C(C)C)c1N=C1[O][Ir]([Cl])[n+]2ccccc21.Cc1c(C)c(C)[c-](C)c1C | cell growth or viability, SRB | 24 h | > 200 µM
